Experimental data pooled from the literature.
Cell line: K562

| SMILES | test | system | conditions | how to read | quantity | result |
| --- | --- | --- | --- | --- | --- | --- |
| O=C(Nc1nnc2n3c(=S)[nH][nH]c3nc(-c3ccc(Cl)cc3)c1-2)c1ccccc1 | SRB | – | 10 µM, NCI60 single-dose screen | reference: untreated | cell growth | 87.4% |
| Cc1n[nH]c(C)c1CSc1ccccc1 | cytotoxicity | – | – | reference: IC50 HEK293 over IC50 K562 | selectivity index | 1.3 |
| O=C1NC(c2ccccc2)(c2ccccc2)C(=O)N1Cc1cn(-c2c3ccccc3nc3ccccc23)nn1 | NCI60 single-dose screen | – | 10 µM | – | growth percentage | 39.2% |
| Cc1n[nH]c2nc(-c3ccc(Cl)cc3)c3c(NC(=O)c4ccccc4)nnc-3n12 | SRB | – | 10 µM, NCI60 single-dose screen | reference: untreated | cell growth | 90.8% |
| Cn1cncc1C1=CN(c2ncnc3[nH]cnc23)CCS1 | – | – | leukemia | – | GI50 | 29.5 µM |
| Cc1cc(=O)[nH]c(=O)n1Cc1cn(-c2c3ccccc3nc3ccccc23)nn1 | NCI60 single-dose screen | – | 10 µM | – | growth percentage | 7.1% |
| Cc1cc(-c2ccccc2)n(-c2nc(-c3ccc(Cl)cc3)c3c(NC(=O)c4ccccc4)nnc-3[nH]2)n1 | SRB | – | 10 µM, NCI60 single-dose screen | reference: untreated | cell growth | 94% |
| CN1CCN(c2ccc3[nH]c(-c4ccc5[nH]c(-c6ccc(C(F)(F)F)cc6)nc5c4)nc3c2)CC1 | SRB | – | 10 µM, 48 h | – | growth percent | -34.2% |
| CCN(CC)c1ccc(C=NNC(=O)CSc2nc3ccccc3c(=O)n2Cc2ccc(S(N)(=O)=O)cc2)c(O)c1 | cell growth | – | – | – | TGI | > 100 µM |
| CCN(CC)CCNC(=O)c1c(C)[nH]c(/C=C2\C(=O)N(C)c3ccc(F)cc32)c1C | measured: ACC phospho-Ser79 | – | 5.0 µM, 2 h, glucose-free medium, added: 12 mM 2-deoxyglucose | reference: DMSO | phospho-ACC level | 97.1% |
| CCCCN1CCN(c2ccc3nc(-c4ccc5nc(-c6cc(OC)ccc6OC)[nH]c5c4)[nH]c3c2)CC1 | SRB | – | 10 µM, 48 h | – | growth percent | 76.2% |
| CCc1ccccc1-n1nc(C)c(C(=O)Nc2ccc3ccccc3n2)c1C | western blot, measured: β-catenin | – | concentration not given | reference: control | protein level | decreased |
| C#C[C@@]1(O)[C@@H](CO)O[C@@H](n2cc(Br)c3c(N)ncnc32)[C@@H]1O | SRB | – | NCI-60 screen | – | TGI | > 100 µM |
| S=C([S][Au-][P+](CCCCCC[P+]([Au-][S]C(=S)n1cccn1)(c1ccccc1)c1ccccc1)(c1ccccc1)c1ccccc1)n1cccn1 | cell growth, NCI-60 screen | – | leukemia | – | log10 TGI | -4.82 |
| CCCN1CCN(c2ccc3[nH]c(-c4ccc5[nH]c(-c6ccc(C(F)(F)F)cc6)nc5c4)nc3c2)CC1 | SRB | – | 10 µM, 48 h | – | growth percent | -51.4% |
| O=C(Nc1nnc2n3c(nc(-c4ccc(Cl)cc4)c1-2)SCC3=O)c1ccccc1 | SRB | – | 10 µM, NCI60 single-dose screen | reference: untreated | cell growth | 99.5% |
| Cc1cc(=O)[nH]c(=O)n1Cc1cn(-c2cc3ccccc3oc2=O)nn1 | NCI60 single-dose screen | – | 10 µM | – | growth percentage | 94.9% |
| CCCCN1CCN(c2ccc3[nH]c(-c4ccc5[nH]c(-c6ccc(C(F)(F)F)cc6)nc5c4)nc3c2)CC1 | SRB | – | 10 µM, 48 h | – | growth percent | -65.8% |
| C#C[C@@]1(O)[C@@H](CO)O[C@@H](n2cc(F)c3c(N)ncnc32)[C@@H]1O | SRB | – | NCI-60 screen | – | TGI | > 100 µM |
| Cc1cc(C)n(-c2nc(-c3ccc(Cl)cc3)c3c(NC(=O)c4ccccc4)nnc-3[nH]2)n1 | SRB | – | 10 µM, NCI60 single-dose screen | reference: untreated | cell growth | 105% |
| CC1(C)CCC(CN2CCN(c3ccc(C(=O)NS(=O)(=O)c4ccc(NCC5CCOCC5)c([N+](=O)[O-])c4)c(Oc4cnc5[nH]ccc5c4)c3)CC2)=C(c2ccc(Cl)cc2)C1 | annexin V/PI flow cytometry, measured: annexin V-/PI+ | – | 3.2 µM, 24 h | – | necrotic cells | 0.2% |
| C#C[C@@]1(O)[C@@H](CO)O[C@@H](n2cc(Cl)c3c(N)ncnc32)[C@@H]1O | SRB | – | NCI-60 screen | – | TGI | > 100 µM |
| COc1ccc(OC)c(-c2nc3ccc(-c4nc5ccc(N6CCN(C)CC6)cc5[nH]4)cc3[nH]2)c1 | SRB | – | 10 µM, 48 h | – | growth percent | 96.4% |
| O=C(c1ccc(/C=C/c2n[nH]c3ccccc23)cc1)N1CCNCC1 | competition binding enrichment | live cells | 2 µM | proteins significantly competed | number of competed kinases | ~30 |
| CCCCN1CCN(c2ccc3[nH]c(-c4ccc5[nH]c(-c6cc(OC)c(OC)c(OC)c6)nc5c4)nc3c2)CC1 | SRB | – | 10 µM, 48 h | – | growth percent | 30.8% |
| C[C@H]1[C@@H](O)O[C@@H]2O[C@@]3(C)CC[C@H]4[C@H](C)CC[C@@H]1[C@@]24OO3 | annexin V/PI flow cytometry, measured: annexin V+/PI- | – | 3.2 µM, 24 h | – | early apoptotic cells | 4.1% |

Some of these lines once more:
| SMILES | test | system | conditions | how to read | quantity | result |
| --- | --- | --- | --- | --- | --- | --- |
| CN1CCN(c2ccc3[nH]c(-c4ccc5[nH]c(-c6ccc(C(F)(F)F)cc6)nc5c4)nc3c2)CC1 | SRB | – | 10 µM, 48 h | – | growth percent | -34.2% |
